Assay results gathered from unrelated publications.
A part holds a random share of what one study measured.
Sequence of UniProt Q7L7X3 (whole entry, looked up): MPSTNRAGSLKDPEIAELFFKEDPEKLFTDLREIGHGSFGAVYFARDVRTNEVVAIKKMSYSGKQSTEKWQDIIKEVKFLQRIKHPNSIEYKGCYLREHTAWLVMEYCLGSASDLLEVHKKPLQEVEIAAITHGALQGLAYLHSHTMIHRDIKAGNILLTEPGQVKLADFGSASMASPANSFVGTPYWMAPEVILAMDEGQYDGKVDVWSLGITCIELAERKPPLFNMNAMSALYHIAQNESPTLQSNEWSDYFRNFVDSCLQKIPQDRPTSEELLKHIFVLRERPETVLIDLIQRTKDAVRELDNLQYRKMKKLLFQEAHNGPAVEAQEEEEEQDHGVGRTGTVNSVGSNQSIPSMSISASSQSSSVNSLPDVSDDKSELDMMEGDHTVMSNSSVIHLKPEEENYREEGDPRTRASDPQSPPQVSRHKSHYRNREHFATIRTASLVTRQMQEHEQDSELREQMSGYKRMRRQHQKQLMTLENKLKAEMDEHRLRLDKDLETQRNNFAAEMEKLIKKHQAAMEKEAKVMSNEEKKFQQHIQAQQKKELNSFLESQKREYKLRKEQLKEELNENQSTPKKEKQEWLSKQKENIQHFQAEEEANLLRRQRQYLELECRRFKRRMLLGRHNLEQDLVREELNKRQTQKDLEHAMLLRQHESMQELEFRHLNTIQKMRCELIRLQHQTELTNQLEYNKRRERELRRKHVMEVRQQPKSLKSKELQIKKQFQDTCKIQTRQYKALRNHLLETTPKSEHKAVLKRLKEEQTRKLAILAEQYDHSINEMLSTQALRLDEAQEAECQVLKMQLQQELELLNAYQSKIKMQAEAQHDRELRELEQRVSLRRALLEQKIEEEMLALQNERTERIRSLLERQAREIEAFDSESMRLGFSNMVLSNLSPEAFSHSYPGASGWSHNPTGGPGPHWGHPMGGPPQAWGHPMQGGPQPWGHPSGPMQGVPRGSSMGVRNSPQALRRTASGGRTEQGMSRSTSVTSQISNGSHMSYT
Sequence of UniProt O75716 (whole entry, looked up): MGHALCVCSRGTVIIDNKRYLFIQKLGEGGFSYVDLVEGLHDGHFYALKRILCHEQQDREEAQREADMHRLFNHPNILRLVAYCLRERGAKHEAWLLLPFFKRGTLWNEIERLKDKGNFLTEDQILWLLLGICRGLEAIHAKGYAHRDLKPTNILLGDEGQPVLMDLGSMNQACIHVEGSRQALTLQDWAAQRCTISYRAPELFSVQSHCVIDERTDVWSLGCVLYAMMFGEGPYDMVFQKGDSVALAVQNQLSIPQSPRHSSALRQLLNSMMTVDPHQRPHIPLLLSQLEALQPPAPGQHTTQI
Sequence of UniProt P51451 (whole entry, looked up): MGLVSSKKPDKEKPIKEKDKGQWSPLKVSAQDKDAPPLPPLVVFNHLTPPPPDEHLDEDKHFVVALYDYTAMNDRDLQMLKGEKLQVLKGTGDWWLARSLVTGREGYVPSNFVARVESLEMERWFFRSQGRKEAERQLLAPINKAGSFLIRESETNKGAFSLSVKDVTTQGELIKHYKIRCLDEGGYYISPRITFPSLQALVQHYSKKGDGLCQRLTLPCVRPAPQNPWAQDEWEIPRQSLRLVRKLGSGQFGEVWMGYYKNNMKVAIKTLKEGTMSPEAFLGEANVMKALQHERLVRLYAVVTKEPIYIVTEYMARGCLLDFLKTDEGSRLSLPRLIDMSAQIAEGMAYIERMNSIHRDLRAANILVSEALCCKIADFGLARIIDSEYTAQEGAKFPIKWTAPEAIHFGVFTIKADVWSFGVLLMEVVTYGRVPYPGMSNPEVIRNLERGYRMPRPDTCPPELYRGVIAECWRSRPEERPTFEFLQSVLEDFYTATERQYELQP
Sequence of UniProt P22612 (whole entry, looked up): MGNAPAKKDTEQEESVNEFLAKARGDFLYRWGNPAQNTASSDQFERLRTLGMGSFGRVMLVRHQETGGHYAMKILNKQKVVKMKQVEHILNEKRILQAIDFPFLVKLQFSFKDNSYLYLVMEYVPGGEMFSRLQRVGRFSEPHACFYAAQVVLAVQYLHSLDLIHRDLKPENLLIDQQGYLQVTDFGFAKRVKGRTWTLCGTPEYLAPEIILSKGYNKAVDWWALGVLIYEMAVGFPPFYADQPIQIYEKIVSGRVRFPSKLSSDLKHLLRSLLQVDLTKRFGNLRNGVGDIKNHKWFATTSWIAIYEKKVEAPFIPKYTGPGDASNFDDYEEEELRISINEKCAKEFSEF
Sequence of UniProt Q12851 (whole entry, looked up): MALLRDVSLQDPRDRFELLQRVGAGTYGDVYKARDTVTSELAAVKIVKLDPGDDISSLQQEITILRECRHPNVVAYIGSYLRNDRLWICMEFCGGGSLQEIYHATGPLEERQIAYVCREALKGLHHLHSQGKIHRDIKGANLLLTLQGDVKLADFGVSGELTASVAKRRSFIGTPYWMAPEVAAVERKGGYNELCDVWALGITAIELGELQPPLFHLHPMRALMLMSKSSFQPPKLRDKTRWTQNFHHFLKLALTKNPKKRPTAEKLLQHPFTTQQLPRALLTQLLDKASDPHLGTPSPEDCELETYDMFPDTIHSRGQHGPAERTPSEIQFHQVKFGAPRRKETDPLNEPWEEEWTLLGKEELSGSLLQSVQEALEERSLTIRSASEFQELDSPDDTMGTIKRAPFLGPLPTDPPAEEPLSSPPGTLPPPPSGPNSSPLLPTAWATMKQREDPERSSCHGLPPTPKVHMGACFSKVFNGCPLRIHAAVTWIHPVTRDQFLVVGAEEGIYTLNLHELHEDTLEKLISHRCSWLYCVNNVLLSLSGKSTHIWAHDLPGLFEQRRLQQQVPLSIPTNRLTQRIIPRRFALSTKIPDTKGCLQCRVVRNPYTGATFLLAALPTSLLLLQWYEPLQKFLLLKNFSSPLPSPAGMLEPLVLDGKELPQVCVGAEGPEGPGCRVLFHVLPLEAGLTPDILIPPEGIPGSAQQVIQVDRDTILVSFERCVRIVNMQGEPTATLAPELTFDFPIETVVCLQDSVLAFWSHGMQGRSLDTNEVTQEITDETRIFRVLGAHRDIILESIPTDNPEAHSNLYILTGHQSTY
Sequence of UniProt Q96PF2 (whole entry, looked up): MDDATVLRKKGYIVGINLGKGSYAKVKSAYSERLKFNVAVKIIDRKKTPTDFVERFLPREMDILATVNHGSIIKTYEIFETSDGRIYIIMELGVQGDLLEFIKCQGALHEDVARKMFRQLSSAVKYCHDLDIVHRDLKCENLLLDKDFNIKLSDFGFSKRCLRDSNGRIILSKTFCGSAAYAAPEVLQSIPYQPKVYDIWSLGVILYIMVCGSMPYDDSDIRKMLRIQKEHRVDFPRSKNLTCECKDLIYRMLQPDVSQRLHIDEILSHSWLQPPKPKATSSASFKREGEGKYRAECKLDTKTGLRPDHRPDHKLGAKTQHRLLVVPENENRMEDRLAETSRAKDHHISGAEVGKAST

Block 1 — method: competition with immobilised ligand; tested at: 1 µM; measurement: remaining binding
SMILES: CO[C@@H](C)c1c(Nc2ccc([C@@H](N(C)C(=O)C3CCS(=O)(=O)CC3)C(F)(F)F)cc2)cnc2cc(Cl)nn12
STE20-like serine/threonine-protein kinase (SLK, Homo sapiens, UniProt Q9H2G2); cell-free assay: 83%
Mitogen-activated protein kinase kinase kinase kinase 2 (MAP4K2, Homo sapiens, UniProt Q12851); cell-free assay: 100%
Phosphatidylinositol 4,5-bisphosphate 3-kinase catalytic subunit alpha isoform (PIK3CA, Homo sapiens, UniProt P42336, I800L); cell-free assay: 71%
Receptor-type tyrosine-protein kinase FLT3 (FLT3, Homo sapiens, UniProt P36888, D835Y); binding: 42%
Tyrosine-protein kinase JAK1, JH1 (JAK1, Homo sapiens, UniProt P23458); cell-free assay: 90%
Serine/threonine-protein kinase 32B (STK32B, Homo sapiens, UniProt Q9NY57); cell-free assay: 95%
Serine/threonine-protein kinase NIM1 (NIM1K, Homo sapiens, UniProt Q8IY84); cell-free assay: 85%
Receptor-type tyrosine-protein kinase FLT3 (FLT3, Homo sapiens, UniProt P36888); cell-free assay: 64%
Serine/threonine-protein kinase TAO1 (TAOK1, Homo sapiens, UniProt Q7L7X3); cell-free assay: 100%
STE20/SPS1-related proline-alanine-rich protein kinase (STK39, Homo sapiens, UniProt Q9UEW8); cell-free assay: 50%
Myosin light chain kinase 2, skeletal/cardiac muscle (MYLK2, Homo sapiens, UniProt Q9H1R3); cell-free assay: 88%
Serine/threonine-protein kinase D1 (PRKD1, Homo sapiens, UniProt Q15139); cell-free assay: 100%
Mast/stem cell growth factor receptor Kit (KIT, Homo sapiens, UniProt P10721, V559D); cell-free assay: 100%
Tyrosine-protein kinase ABL2 (ABL2, Homo sapiens, UniProt P42684); cell-free assay: 84%
Proto-oncogene tyrosine-protein kinase receptor Ret (RET, Homo sapiens, UniProt P07949, V804M); cell-free assay: 87%
Serine/threonine-protein kinase PLK3 (PLK3, Homo sapiens, UniProt Q9H4B4); cell-free assay: 84%

Block 2 — observed: enzyme activity; action: inhibitor; tested at: 10 µM; measurement: inhibition
Target: Calcium/calmodulin-dependent protein kinase type II subunit alpha (CAMK2A, Homo sapiens, UniProt Q9UQM7)
Sequence of UniProt Q9UQM7 (whole entry, looked up): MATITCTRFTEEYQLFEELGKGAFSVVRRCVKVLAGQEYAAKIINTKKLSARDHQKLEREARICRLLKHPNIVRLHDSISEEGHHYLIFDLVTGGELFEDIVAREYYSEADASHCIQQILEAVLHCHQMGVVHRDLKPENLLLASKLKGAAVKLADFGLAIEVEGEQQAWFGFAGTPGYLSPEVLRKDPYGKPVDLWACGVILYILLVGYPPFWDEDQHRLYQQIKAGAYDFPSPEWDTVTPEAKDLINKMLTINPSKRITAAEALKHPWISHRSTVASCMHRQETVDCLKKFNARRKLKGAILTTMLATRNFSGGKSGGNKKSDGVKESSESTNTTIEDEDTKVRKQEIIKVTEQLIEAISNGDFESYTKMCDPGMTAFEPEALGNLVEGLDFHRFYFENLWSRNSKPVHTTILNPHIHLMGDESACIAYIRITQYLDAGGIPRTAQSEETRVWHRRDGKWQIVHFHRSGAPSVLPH
CC(=O)[C@H]1CC[C@H]2[C@@H]3C=CC4=CC(=O)CC[C@@]4(C)[C@@H]3CC[C@]12C: -3%
O=C(O)C1CCCCN1 (centres unmarked): 21%
Clc1ccc2nsnc2c1NC1=NCCN1: -5%
C[C@H](CC[C@@H](O)C(C)(C)O)[C@H]1CC[C@@]2(C)[C@@H]3CC=C4[C@@H](CC[C@H](O)C4(C)C)[C@]3(C)[C@H](O)C[C@]12C: -92%
CC(=O)O[C@H]1CC[C@H]2[C@@H]3CCc4cc(O)ccc4[C@H]3CC[C@]12C: 1%
O=S(=O)(O)CCO: 15%
N[C@@H]1CONC1=O: 0%
CC(=O)c1cc2c(CO)cc(O)cc2oc1=O: 3%
CCCCCCCCCCCCCCCCO: 17%
CC(CC(=O)CC(C)(O)[C@H]1CC(=O)[C@@]2(C)C3=C(C(=O)C[C@]12C)[C@@]1(C)CCC(=O)C(C)(C)[C@@H]1C[C@@H]3O)C(=O)O (some centres unmarked): -21%
COc1cc2ccc(=O)oc2c(OC)c1O: -11%
COc1cc(O)c(CC=C(C)C)c2c1C(=O)CC(c1ccc(O)cc1)O2 (centres unmarked): -0.02%
CCN(CC)CCNC(=O)c1cc(S(C)(=O)=O)ccc1OC: 3%
CC/C=C/CC1C(=O)CCC1CC(=O)OC (centres unmarked): -8%
COc1cc(/C=C/c2ccc(OC)c(OC)c2)oc(=O)c1: -34%
C=CC(=O)N1CCC[C@@H](n2nc(-c3ccc(Oc4ccccc4)cc3)c3c(N)ncnc32)C1 (racemic): -0.04%
CC(C)CCC[C@@H](C)[C@H]1CC[C@H]2[C@@H]3[C@H](O)C=C4C[C@@H](O)CC[C@]4(C)[C@H]3CC[C@]12C: -4%
Nc1nc(F)nc2c1ncn2[C@@H]1O[C@H](CO)[C@@H](O)[C@@H]1O: -1%

Block 3 — action: inhibitor; tested at: 10 µM; relative to: control; measurement: remaining activity
Target: Diamine acetyltransferase 1 (Homo sapiens, UniProt P21673)
Residues (P21673 1-171): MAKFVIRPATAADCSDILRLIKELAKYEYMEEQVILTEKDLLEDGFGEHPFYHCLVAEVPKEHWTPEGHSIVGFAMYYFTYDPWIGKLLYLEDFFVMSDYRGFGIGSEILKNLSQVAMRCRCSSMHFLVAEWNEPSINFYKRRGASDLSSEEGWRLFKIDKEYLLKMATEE
C=C(C)[C@@H]1CC[C@]2(C(=O)O)CC[C@]3(C)[C@H](CC[C@@H]4[C@@]5(C)CC[C@H](OC(=O)CC(C)(C)C(=O)O)C(C)(C)[C@@H]5CC[C@]43C)[C@@H]12: 92.8%
CCCCCCCCCCCCCCCCCCCCCCCCCCCCCCO: 90.2%
Oc1cc(O)c2cc(O)c(-c3ccc(O)c(O)c3)[o+]c2c1: 99.8%
OCc1ccccc1: 97.7%
O=c1cc(-c2ccc(O)c(O)c2)oc2cc(O)cc(O)c12: 99.5%
COC(=O)C1=CO[C@@H](O[C@@H]2O[C@H](CO)[C@@H](O)[C@H](O)[C@H]2O)[C@@H]2C(CO)=C[C@@H](O)[C@H]12: 99.4%
CCCCCCCCCCCCC: 105%
COc1cc(C[C@H](C)[C@H](C)Cc2ccc3c(c2)OCO3)ccc1O: 100%
CCOC(=O)/C=C/c1ccc(OC)cc1: 99%
C/C=C(\CC[C@@H](C)[C@H]1CC[C@H]2[C@@H]3CC=C4C[C@@H](O)CC[C@]4(C)[C@H]3CC[C@]12C)C(C)C: 112%
COc1ccc(-c2cc(=O)c3c(O)cc(O[C@@H]4O[C@H](CO)[C@@H](O)[C@H](O)[C@H]4O)cc3o2)cc1O: 110%
O=C(O)c1ccc(=O)oc1: 90.7%
CCCCCCCCCCCCCCCCCCCCCCC(=O)O: 89.2%
Cc1cc(O)c2c(c1)C(=O)c1cc(O)cc(O)c1C2=O: 85.4%
C/C=C/c1cc(OC)c2c(c1)C(C)C(c1ccc(O)c(OC)c1)O2 (centres unmarked): 97.1%
CCCCCCCCCCCCCCCCCC: 101%
O=C(/C=C/c1ccc(O[C@@H]2O[C@H](CO)[C@@H](O)[C@H](O)[C@H]2O)cc1)c1ccc(O)cc1O: 110%

Block 4 — SMILES: Clc1ccc(Nc2nnc(Cc3ccncc3)c3ccccc23)cc1; observed: enzyme activity; action: inhibitor; tested at: 0.5 µM; relative to: control; measurement: remaining activity
Serine/threonine-protein kinase WNK3 (WNK3, Homo sapiens, UniProt Q9BYP7): 99.1%
Tyrosine-protein kinase Blk (BLK, Homo sapiens, UniProt P51451): 105%
Testis-specific serine/threonine-protein kinase 2 (TSSK2, Homo sapiens, UniProt Q96PF2): 82.8%
Ephrin type-B receptor 4 (EPHB4, Homo sapiens, UniProt P54760): 85.1%
Serine/threonine-protein kinase 16 (STK16, Homo sapiens, UniProt O75716): 93.5%
Mitogen-activated protein kinase kinase kinase kinase 4 (MAP4K4, Homo sapiens, UniProt O95819): 107%
Cyclin-dependent kinase 6, with cyclin D3 (CDK6, Homo sapiens, UniProt Q00534): 125%
cAMP-dependent protein kinase catalytic subunit gamma (PRKACG, Homo sapiens, UniProt P22612): 116%
Ribosomal protein S6 kinase alpha-5 (RPS6KA5, Homo sapiens, UniProt O75582): 85.5%
Phosphorylase b kinase gamma catalytic chain, skeletal muscle/heart isoform (PHKG1, Homo sapiens, UniProt Q16816): 94.2%
Dual specificity tyrosine-phosphorylation-regulated kinase 3 (DYRK3, Homo sapiens, UniProt O43781): 95.9%
Ephrin type-A receptor 4 (EPHA4, Homo sapiens, UniProt P54764): 102%
3-phosphoinositide-dependent protein kinase 1 (PDPK1, Homo sapiens, UniProt O15530): 88.3%
Cyclin-dependent kinase 1, with cyclin B (CDK1, Homo sapiens, UniProt P06493): 104%
Homeodomain-interacting protein kinase 4 (HIPK4, Homo sapiens, UniProt Q8NE63): 95.9%
Tyrosine-protein kinase ABL1 (ABL1, Homo sapiens, UniProt P00519): 96.5%
MAP kinase-activated protein kinase 3 (MAPKAPK3, Homo sapiens, UniProt Q16644): 98.9%
Cyclin-dependent kinase 4, with cyclin D3 (CDK4, Homo sapiens, UniProt P11802): 102%
Tyrosine-protein kinase Srms (SRMS, Homo sapiens, UniProt Q9H3Y6): 91.8%
Ribosomal protein S6 kinase alpha-6 (RPS6KA6, Homo sapiens, UniProt Q9UK32): 99.7%

Repeated from above (block 1):
Serine/threonine-protein kinase NIM1 (NIM1K, Homo sapiens, UniProt Q8IY84); cell-free assay: 85%
Receptor-type tyrosine-protein kinase FLT3 (FLT3, Homo sapiens, UniProt P36888); cell-free assay: 64%
Serine/threonine-protein kinase TAO1 (TAOK1, Homo sapiens, UniProt Q7L7X3); cell-free assay: 100%
STE20/SPS1-related proline-alanine-rich protein kinase (STK39, Homo sapiens, UniProt Q9UEW8); cell-free assay: 50%
Myosin light chain kinase 2, skeletal/cardiac muscle (MYLK2, Homo sapiens, UniProt Q9H1R3); cell-free assay: 88%
Serine/threonine-protein kinase D1 (PRKD1, Homo sapiens, UniProt Q15139); cell-free assay: 100%
Mast/stem cell growth factor receptor Kit (KIT, Homo sapiens, UniProt P10721, V559D); cell-free assay: 100%
Tyrosine-protein kinase ABL2 (ABL2, Homo sapiens, UniProt P42684); cell-free assay: 84%
Proto-oncogene tyrosine-protein kinase receptor Ret (RET, Homo sapiens, UniProt P07949, V804M); cell-free assay: 87%
